Published values of several laboratories.
A part holds a random share of what one study measured.

Study 1 — technique: protein-binding microarray; molecule type: double-stranded DNA, one strand shown; matrix: in vitro; tested at: 940 nM top; setting: 60-bp whole probe; together with: salmon DNA 0.4 mg/ml; reference: random background probes; reading: higher = stronger binding; endpoint: fitted relative affinity
Target: Interferon regulatory factor 5, full length, phosphomimetic (IRF5, Homo sapiens, UniProt Q13568-2, residues 1-514, S451D/S453D/S456D/S462D)
Shared flanks, not repeated: GCCTAGCAC … GTGCTAGGTCTTGATTCGCTTGACGCTGCTG
Oligonucleotide = GAAGATATCAGTATCGAGAC; value = 1.68 z-score
Oligonucleotide = TCATGTCCCTGTTTCTAACT; value = 0.908 z-score
Oligonucleotide = TCATTTCTATATTTGCTACT; value = 1.21 z-score
Oligonucleotide = TCATGCCTGTTTTTCCCACT; value = 0.868 z-score
Oligonucleotide = TCAATTTTGTGTCTGGGACT; value = -0.261 z-score
Oligonucleotide = GACGGTATCGGACTGGGGGC; value = 4.01 z-score

Study 2 — technique: protein-binding microarray; molecule type: double-stranded DNA, one strand shown; matrix: in vitro; tested at: 0.8 µM; setting: whole 60-bp probe, no competitor; reading: higher = stronger binding; endpoint: fluorescence intensity; shared flanks, not repeated: … GTCTTGATTCGCTTGACGCTGCTG
Target: Centromere-binding protein 1, full length, N-terminal tag (CBF1, Saccharomyces cerevisiae, UniProt P17106, residues 1-351)
Sequence of UniProt P17106 (whole entry, looked up): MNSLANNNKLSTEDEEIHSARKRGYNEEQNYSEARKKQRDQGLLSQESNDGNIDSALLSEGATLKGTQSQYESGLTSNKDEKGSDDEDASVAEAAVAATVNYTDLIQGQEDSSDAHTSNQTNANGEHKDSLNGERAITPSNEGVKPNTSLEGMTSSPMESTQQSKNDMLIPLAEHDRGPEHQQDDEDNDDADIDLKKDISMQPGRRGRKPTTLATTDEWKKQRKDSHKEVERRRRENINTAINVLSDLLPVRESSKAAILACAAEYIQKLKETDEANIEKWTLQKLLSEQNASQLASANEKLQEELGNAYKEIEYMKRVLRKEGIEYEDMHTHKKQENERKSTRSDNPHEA
Oligonucleotide = GAATTATTGTGGATGCTGATGGCCGTGTATGGCTAG; value = 522 a.u.
Oligonucleotide = CTATAGTAGTGCTCATCCGTGATCCTTTAATTTTTC; value = 597 a.u.
Oligonucleotide = CTACAACTTCCATAGTACGTGCCTGCTACTGTGTTC; value = 548 a.u.
Oligonucleotide = CTAACACTTCAACAACACGTGTCTGTGACCGCTTTC; value = 5720 a.u.
Oligonucleotide = GAATTTTCCTTACTACACGTTTTAAATAGAATATAG; value = 611 a.u.
Oligonucleotide = TGTACGAAGCTATTGCATGTGTATATAGTAGTTAGG; value = 569 a.u.
Oligonucleotide = GAAAGCACATGATATCACCAGACGTGTTGCACTTAG; value = 1150 a.u.
Oligonucleotide = GAATCTGTTTCCCGTATCGTGGTGGAAAAAGATTAG; value = 538 a.u.
Oligonucleotide = GAACAGCAGAAGGGTGATCAGTTGAGGTGGAGATAG; value = 587 a.u.
Oligonucleotide = GAAAGCGGTTTTAATCACGTTACCGTTTATTTCTAG; value = 3690 a.u.
Oligonucleotide = GAATAAATGCTGCCAAAGGTGATGCGGTTTTGTTAG; value = 525 a.u.
Oligonucleotide = GAAGATATATTTTCTGATGTCCTAGGAATTGGATAG; value = 504 a.u.
Oligonucleotide = GAACTTGACAATGTTCTCATGATAATGTAAGTATAG; value = 546 a.u.

Study 3 — technique: protein binding microarray; molecule type: double-stranded DNA, one strand shown; matrix: in vitro; tested at: not given; reference: not given; reading: higher = stronger binding; endpoint: E-score
Target: Histone acetyltransferase KAT6A, both winged helices, GST fusion (KAT6A, Homo sapiens, UniProt Q92794, residues 1-181)
Setting: 8-mer, flanks averaged, mean of 2 arrays, mostly near background
Residues (chain): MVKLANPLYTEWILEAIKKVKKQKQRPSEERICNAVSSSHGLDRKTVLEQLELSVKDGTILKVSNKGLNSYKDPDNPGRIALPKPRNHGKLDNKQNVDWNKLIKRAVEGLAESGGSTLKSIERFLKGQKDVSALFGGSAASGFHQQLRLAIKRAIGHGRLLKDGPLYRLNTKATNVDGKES
Oligonucleotide = AAGCCTTC; value = -0.0905
Oligonucleotide = CATAGCCG; value = 0.254
Oligonucleotide = ACATTCAC; value = -0.105
Oligonucleotide = AATTCGGC; value = 0.0581
Oligonucleotide = ACGACGTC; value = 0.0223
Oligonucleotide = ACAACAAG; value = -0.142
Oligonucleotide = GAACATGA; value = -0.0512
Oligonucleotide = CTCTAGTA; value = -0.0941
Oligonucleotide = GCTCACTA; value = -0.0437

Single results of other studies
Molecule = PhoQ, residues 284 288 289 292 302 303 AGGCYF; target = PhoP, residues 12 14 15 18 19 TPLRH (Escherichia coli, UniProt P23836); assay = Sort-seq, measured: YFP reporter; test system = E. coli; conditions = PhoQ-PhoP variant library, together with: 10 µM Mg2+; scale = reference: high Mg2+ state, higher = stronger signaling; endpoint = fold induction; value = 3.45

Repeated from above (study 2):
Oligonucleotide = CTAACACTTCAACAACACGTGTCTGTGACCGCTTTC; value = 5720 a.u.
Oligonucleotide = GAAGATATATTTTCTGATGTCCTAGGAATTGGATAG; value = 504 a.u.
Oligonucleotide = TGTACGAAGCTATTGCATGTGTATATAGTAGTTAGG; value = 569 a.u.
